# Experimental data gathered from unrelated publications.
# Lines come from different studies, so protocols differ. ± gives the spread as reported.
# Organism: Bacillus subtilis
Structure (SMILES),test,test system,setting,MIC
CC[C@H](C)[C@H](N)C(=O)N[C@@H](CCCCN)C(=O)N[C@@H](Cc1c[nH]c2ccccc12)C(=O)N[C@@H](CCCCN)C(=O)N[C@@H](CCCCN)C(=O)N[C@@H](CC(C)C)C(=O)N[C@@H](CC(C)C)C(=O)N[C@@H](CCCNC(=N)N)C(=O)N[C@@H](C)C(=O)N[C@@H](C)C(=O)N[C@@H](CCCCN)C(=O)N[C@@H](CCCNC(=N)N)C(=O)N[C@H](C(=O)N[C@@H](CC(C)C)C(N)=O)[C@@H](C)CC,broth microdilution,168,,12.5 µM
CC[C@H](C)[C@H](NC(=O)[C@H](CO)NC(=O)[C@@H](NC(=O)[C@H](C)NC(=O)[C@H](CCC(N)=O)NC(=O)CNC(=O)[C@@H](NC(=O)[C@@H](NC(=O)CNC(=O)[C@@H](NC(=O)[C@H](C)NC(=O)[C@@H]1CCCN1C(=O)CNC(=O)[C@H](C)NC(=O)[C@H](CCCCN)NC(=O)[C@@H](NC(=O)[C@@H](NC(=O)CNC(=O)[C@H](CC(=O)O)NC(=O)[C@H](CCCNC(=N)N)NC(=O)[C@@H](NC(=O)[C@H](CCCCN)NC(=O)[C@H](CCCNC(=N)N)NC(=O)CNC(=O)[C@@H](NC(=O)[C@H](CCCCN)NC(=O)[C@H](CCC(=O)O)NC(=O)[C@@H](NC(=O)[C@H](CCCCN)NC(=O)[C@H](CCCCN)NC(=O)[C@H](CC(C)C)NC(=O)[C@H](Cc1ccccc1)NC(=O)[C@H](CCCCN)NC(=O)[C@H](Cc1c[nH]c2ccccc12)NC(=O)[C@@H](N)CCCNC(=N)N)[C@@H](C)CC)C(C)C)C(C)C)C(C)C)[C@@H](C)CC)C(C)C)C(C)C)C(C)C)[C@@H](C)O)C(=O)N[C@@H](Cc1ccc(O)cc1)C(=O)N[C@@H](CCCCN)C(N)=O,broth microdilution,,"20 h, 37 °C",50 ± 19 µg/mL
O=C(O)CCN1C(=O)/C(=C/c2ccc(-c3ccc(Cl)cc3Cl)o2)SC1=S,microbial growth,ATCC6051,,~0.43 µg/mL
CC[C@H](C)[C@H](NC(=O)CNC(=O)[C@H](CC(=O)O)NC(=O)[C@H](CCCNC(=N)N)NC(=O)[C@@H](NC(=O)[C@H](CC(N)=O)NC(=O)[C@H](CCCNC(=N)N)NC(=O)CNC(=O)[C@@H](NC(=O)[C@H](CCCCN)NC(=O)[C@H](CCC(=O)O)NC(=O)[C@@H](NC(=O)[C@H](CCCCN)NC(=O)[C@H](CCCCN)NC(=O)[C@H](Cc1ccccc1)NC(=O)[C@@H](NC(=O)[C@H](CCCCN)NC(=O)[C@H](Cc1c[nH]c2ccccc12)NC(=O)[C@@H](N)CCCCN)[C@@H](C)CC)[C@@H](C)CC)C(C)C)C(C)C)C(=O)N[C@H](C(=O)N[C@@H](CCCCN)C(=O)N[C@@H](C)C(=O)NCC(=O)N1CCC[C@H]1C(=O)N[C@@H](C)C(=O)N[C@H](C(=O)N[C@@H](CCC(N)=O)C(=O)N[C@H](C(=O)N[C@H](C(=O)NCC(=O)N[C@@H](CCC(N)=O)C(=O)N[C@@H](C)C(=O)N[C@H](C(=O)N[C@@H](CO)C(=O)N[C@H](C(=O)N[C@@H](C)C(=O)N[C@@H](CCCCN)C(N)=O)[C@@H](C)CC)[C@@H](C)O)C(C)C)C(C)C)C(C)C)[C@@H](C)CC,broth microdilution,,"20 h, 37 °C",131 ± 46.1 µg/mL
CC[C@H](C)[C@H](NC(=O)CN)C(=O)NCC(=O)N[C@@H](C)C(=O)N[C@H](C(=O)N[C@@H](CC(C)C)C(=O)N[C@@H](CCCCN)C(=O)N[C@H](C(=O)N[C@@H](CC(C)C)C(=O)N[C@H](C(=O)N[C@H](C(=O)NCC(=O)N[C@@H](CC(C)C)C(=O)N1CCC[C@H]1C(=O)N[C@@H](C)C(=O)N[C@@H](CC(C)C)C(=O)N[C@H](C(=O)N[C@@H](CO)C(=O)N[C@@H](Cc1c[nH]c2ccccc12)C(=O)N[C@H](C(=O)N[C@@H](CCCCN)C(=O)N[C@@H](CCCNC(=N)N)C(=O)N[C@@H](CCCCN)C(=O)N[C@@H](CCCNC(=N)N)C(=O)N[C@@H](CCC(N)=O)C(=O)N[C@@H](CCC(N)=O)C(N)=O)[C@@H](C)CC)[C@@H](C)CC)[C@@H](C)O)[C@@H](C)O)C(C)C)C(C)C,broth microdilution,KCTC 3068,"16 h, 37 °C",0.8 µM
CCCCCCCCCCCc1cc(O)cc(O)c1,broth microdilution,strain 168,"overnight, 37 °C",1 to 8 µg/mL
Cc1cc(Cl)ccc1-c1ccc(/C=C2\SC(=S)N(CC(=O)O)C2=O)o1,microbial growth,ATCC6051,,~3 µg/mL
CCCCCCCC/C=C\CCCc1cc(O)cc(O)c1,broth microdilution,strain 168,"overnight, 37 °C",1 to 8 µg/mL
CC[C@H](C)[C@H](NC(=O)[C@H](C)NC(=O)[C@H](CCCCN)NC(=O)[C@H](CC(C)C)NC(=O)[C@H](C)NC(=O)[C@@H](NC(=O)[C@H](Cc1c[nH]cn1)NC(=O)[C@H](CC(C)C)NC(=O)[C@@H](NC(=O)[C@@H](NC(=O)[C@H](CCCCN)NC(=O)[C@H](CCCCN)NC(=O)[C@H](C)NC(=O)[C@H](CO)NC(=O)[C@H](CCCCN)NC(=O)[C@H](Cc1ccccc1)NC(=O)[C@@H](NC(=O)[C@H](CCCCN)NC(=O)[C@H](CC(C)C)NC(=O)[C@H](Cc1ccccc1)NC(=O)[C@H](CO)NC(=O)[C@H](CCCCN)NC(=O)[C@H](Cc1c[nH]c2ccccc12)NC(=O)[C@H](CCCCN)NC(C)=O)[C@@H](C)O)[C@@H](C)O)C(C)C)[C@@H](C)O)C(=O)N[C@@H](CO)C(=O)N[C@@H](CO)C(N)=O,broth dilution,"ATCC 49619, Mueller-Hinton broth","24 h, 37 °C",8 µg/mL

# Excerpt of the above:
Structure (SMILES),test,test system,setting,MIC
CC[C@H](C)[C@H](NC(=O)CNC(=O)[C@H](CC(=O)O)NC(=O)[C@H](CCCNC(=N)N)NC(=O)[C@@H](NC(=O)[C@H](CC(N)=O)NC(=O)[C@H](CCCNC(=N)N)NC(=O)CNC(=O)[C@@H](NC(=O)[C@H](CCCCN)NC(=O)[C@H](CCC(=O)O)NC(=O)[C@@H](NC(=O)[C@H](CCCCN)NC(=O)[C@H](CCCCN)NC(=O)[C@H](Cc1ccccc1)NC(=O)[C@@H](NC(=O)[C@H](CCCCN)NC(=O)[C@H](Cc1c[nH]c2ccccc12)NC(=O)[C@@H](N)CCCCN)[C@@H](C)CC)[C@@H](C)CC)C(C)C)C(C)C)C(=O)N[C@H](C(=O)N[C@@H](CCCCN)C(=O)N[C@@H](C)C(=O)NCC(=O)N1CCC[C@H]1C(=O)N[C@@H](C)C(=O)N[C@H](C(=O)N[C@@H](CCC(N)=O)C(=O)N[C@H](C(=O)N[C@H](C(=O)NCC(=O)N[C@@H](CCC(N)=O)C(=O)N[C@@H](C)C(=O)N[C@H](C(=O)N[C@@H](CO)C(=O)N[C@H](C(=O)N[C@@H](C)C(=O)N[C@@H](CCCCN)C(N)=O)[C@@H](C)CC)[C@@H](C)O)C(C)C)C(C)C)C(C)C)[C@@H](C)CC,broth microdilution,,"20 h, 37 °C",131 ± 46.1 µg/mL
